Results from different studies.
Parts stem from different laboratories: compare values within a part only. Values joined by “and” are separate records of one study, mostly repeats; a detail may differ. Positions count from the first letter of the parent shown.
Sequence of UniProt P28335 (whole entry, looked up): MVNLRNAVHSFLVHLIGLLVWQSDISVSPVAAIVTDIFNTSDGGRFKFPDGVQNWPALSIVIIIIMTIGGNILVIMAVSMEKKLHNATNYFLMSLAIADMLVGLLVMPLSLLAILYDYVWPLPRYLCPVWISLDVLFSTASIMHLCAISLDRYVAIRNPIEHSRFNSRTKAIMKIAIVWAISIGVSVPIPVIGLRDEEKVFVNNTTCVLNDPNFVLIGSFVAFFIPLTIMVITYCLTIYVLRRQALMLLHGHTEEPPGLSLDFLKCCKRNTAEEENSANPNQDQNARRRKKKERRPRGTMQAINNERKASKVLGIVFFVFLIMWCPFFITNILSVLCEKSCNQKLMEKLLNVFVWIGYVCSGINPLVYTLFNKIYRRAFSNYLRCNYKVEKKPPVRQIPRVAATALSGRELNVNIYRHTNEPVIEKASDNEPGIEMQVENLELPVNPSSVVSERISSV

Set 1 — target: CCNF, cyclin fold, Cln2 fusion (human); method: yeast growth competition, sequencing; matrix: yeast; notes: strong parent motif; baseline: not given; reading: higher = stronger binding; starting sequence: viral docking peptide; KGVKRKLFAEDSS
`V3I` — result for “normalised enrichment score”: 7.59.
`F8E` — result for “normalised enrichment score”: 0.91.
`S12L` — result for “normalised enrichment score”: 8.13.
`F8H`: “normalised enrichment score” 0.327.
Under “normalised enrichment score”, `R5S` is recorded as 0.285.
For `E10V`, “normalised enrichment score” read 7.81.
For `V3G`, “normalised enrichment score” read 3.29.
Under “normalised enrichment score”, `K4P` is recorded as 6.88.

Set 2 — observed: binding; method: phage display NGS; molecule type: peptide; tested at: concentration not given; notes: panning round 2; baseline: input library
Target: UDP-N-acetylglucosamine--peptide N-acetylglucosaminyltransferase 110 kDa subunit (OGT, Homo sapiens, UniProt O15294)
Sequence of UniProt O15294 (whole entry, looked up): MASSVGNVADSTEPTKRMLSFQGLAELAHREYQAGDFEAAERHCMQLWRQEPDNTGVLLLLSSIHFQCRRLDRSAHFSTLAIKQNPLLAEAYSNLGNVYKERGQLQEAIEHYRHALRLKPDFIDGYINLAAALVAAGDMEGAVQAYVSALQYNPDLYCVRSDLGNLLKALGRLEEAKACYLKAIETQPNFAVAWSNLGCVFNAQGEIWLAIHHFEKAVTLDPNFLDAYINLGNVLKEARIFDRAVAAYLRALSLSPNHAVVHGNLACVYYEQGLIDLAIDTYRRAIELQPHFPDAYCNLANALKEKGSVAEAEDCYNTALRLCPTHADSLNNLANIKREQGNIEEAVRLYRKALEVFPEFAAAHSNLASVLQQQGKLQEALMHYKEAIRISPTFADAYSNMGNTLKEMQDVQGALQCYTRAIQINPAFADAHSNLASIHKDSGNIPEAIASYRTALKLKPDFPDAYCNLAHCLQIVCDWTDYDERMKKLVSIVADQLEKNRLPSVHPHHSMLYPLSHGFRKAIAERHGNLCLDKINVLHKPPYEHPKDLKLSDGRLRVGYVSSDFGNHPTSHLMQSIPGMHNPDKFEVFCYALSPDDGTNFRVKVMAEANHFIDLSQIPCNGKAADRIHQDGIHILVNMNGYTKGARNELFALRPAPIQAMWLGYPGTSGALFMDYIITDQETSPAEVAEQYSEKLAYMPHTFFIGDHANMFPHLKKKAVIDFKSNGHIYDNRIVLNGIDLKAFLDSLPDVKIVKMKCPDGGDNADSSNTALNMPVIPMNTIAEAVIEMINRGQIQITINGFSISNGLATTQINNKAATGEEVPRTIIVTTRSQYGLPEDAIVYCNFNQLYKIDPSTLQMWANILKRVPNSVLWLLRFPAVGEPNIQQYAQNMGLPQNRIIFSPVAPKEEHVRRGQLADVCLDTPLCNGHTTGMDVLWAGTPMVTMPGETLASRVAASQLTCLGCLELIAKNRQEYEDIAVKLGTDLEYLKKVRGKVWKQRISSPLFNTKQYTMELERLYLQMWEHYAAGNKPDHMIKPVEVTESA
Under “enrichment fold change”, `SIGHEQGYTYYHTHH` is recorded as 3.5.
`QPYQHNFYHWHAQPS` — result for “enrichment fold change”: 5.33.
`HFRMGHNRETTHVG`: “enrichment fold change” 6.27.
For `HTYEQHWTHEIWHLA`, “enrichment fold change” read 4.91.
Under “enrichment fold change”, `MWFPPVYSIQYDLI` is recorded as 11.1.
`QMHHHVIMGHHIGHT`: “enrichment fold change” 4.75.
`GVQDYLPMYQISMSN`: “enrichment fold change” 12.6.
For `AFSPQYQIFVGQTYM`, “enrichment fold change” read 4.12.

Single results of other studies
`CNC(=O)c1ccc(-c2cnn3ccc(C(=O)N(C)c4ccc(Cl)c(C(=O)OC)c4)cc23)cc1` — result for “faecal oocyst shedding”: 6.57 log oocysts/g faeces and 6.38 log oocysts/g faeces and 5.61 log oocysts/g faeces (Cryptosporidium parvum; qPCR; IFN-γ knockout mouse, faeces; 10 mg/kg, day 1 post treatment).
`Cc1nc(Cc2cccc(C(F)(F)F)c2)sc1-c1ccc(C(N)=O)nc1` has an inhibition of 0.93% (HTR2C (Homo sapiens, UniProt P28335); binding, radioligand binding; 10 µM).

For quick reference, copied from above (set 2):
Under “enrichment fold change”, `SIGHEQGYTYYHTHH` is recorded as 3.5.
